Experimental data of several laboratories.
Lines come from different studies, so protocols differ. ± marks the error that the study gave. Converted amounts (≈) assume the structure as drawn.

CCCCCCCCCCCC(=O)NCCC(=O)N[C@@H](CCCNC(=N)N)C(=O)N[C@@H](CCCNC(=N)N)C(=O)N[C@@H](CCCNC(=N)N)C(=O)N[C@@H](CCCNC(=N)N)C(=O)N[C@H](CCCNC(=N)N)C(=O)N[C@H](CCCNC(=N)N)C(=O)N[C@H](CCCNC(=N)N)C(=O)N[C@H](CCCNC(=N)N)C(=O)N[C@H](CCCNC(=N)N)C(=O)N[C@@H](CCCCNC(=S)Nc1ccc2c(c1)C(=O)OC21c2ccc(O)cc2Oc2cc(O)ccc21)C(N)=O  retained fluorescence (Jurkat; flow cytometry; 10 µM, 6 h, loaded 10 min at 37 °C, then washed; baseline: 0 h, higher = more retained): ~50%
COc1cc(CCC(C)=O)ccc1O  IC50 (mouse mAb 1-D6; antibody binding, indirect competitive ELISA; added: coating antigen 5-OVA): 0.122 µg/mL (≈ 0.626 µM)
CC(=O)N[C@H](CC(=O)O)C(=O)N[C@H](Cc1c[nH]c2ccccc12)C(=O)N[C@H](Cc1ccccc1)C(=O)N[C@H](CCCCN)C(=O)N[C@H](C)C(=O)N[C@H](Cc1ccccc1)C(=O)N[C@H](Cc1ccc(O)cc1)C(=O)N[C@H](CC(=O)O)C(=O)N[C@H](CCCCN)C(=O)N[C@@H](C(=O)N[C@H](C)C(=O)N[C@H](CCC(=O)O)C(=O)N[C@H](CCCCN)C(=O)N[C@H](Cc1ccccc1)C(=O)N[C@H](CCCCN)C(=O)N[C@H](CCC(=O)O)C(=O)N[C@H](C)C(=O)N[C@H](Cc1ccccc1)C(N)=O)C(C)C  AUC(0-t) (statin-treated high-risk CHD women, plasma; oral, 500 mg daily, day 1, 0 to 2 h, mean, all subjects): 247 ng·h/mL
CN1CCC(N[C@@H]2CCc3[nH]c4c(C(N)=O)ccc(-c5ccccc5Cl)c4c3C2)CC1  AUC(0-t) (BALB/c mice; oral, 10 mg/kg): 437 ng·h/mL
CSCOC1C(=O)C2(C)C(OCSC)CC3OCC3(OC(C)=O)C2C(OC(=O)c2ccccc2)C2(O)CC(OC(=O)C(O)C(C=C(C)C)NC(=O)OC(C)(C)C)C(C)=C1C2(C)C (stereo not drawn)  AUC(0-t) (female Sprague-Dawley rat, plasma; intravenous, 1 mg/kg): 109 ng·h/mL
Cc1ccc(OCC(=O)N(Cc2cccs2)c2ccn[nH]2)cc1  AUC(0-t) (female Sprague-Dawley rat, plasma; oral, 10 mg/kg, single dose): 7.86 ng·h/mL
CC(C)(O)c1ncc([S@](N)(=O)=NC(=O)Nc2c3c(cc4c2CCC4)CCC3)s1  AUC(0-t) (human, plasma; oral, 600 mg, single dose, fasted, healthy volunteers): 792000 ng·h/mL
CC12CC(c3ccc(S(C)(=O)=O)cc3)C3=C4CCC(=O)C=C4CCC3C1CCC2(O)C(F)(F)C(F)(F)F (stereo not drawn)  AUC(0-t) (human, plasma; oral, 5 mg, single dose, fasted): 317 ng·h/mL
CCCCC/C=C/C(=O)CCc1ccc(O)c(OC)c1  IC50 (mouse mAb 1-D6; antibody binding, indirect competitive ELISA; added: coating antigen 6-OVA): 0.0503 µg/mL (≈ 0.182 µM)
Cc1cccc(O[C@H]2CCC[C@@H](C(C)CNCc3ccncc3)C2)c1 (relative stereo)  AUC(0-t) (C57BL/6 female mice, plasma; intravenous, 3 mg/kg): 695 ng·h/mL
[64Cu+2].c1ccc(CNCc2ccc(CN3CCCN4CCNCCCN(CC4)CC3)cc2)nc1  tissue uptake (CXCR4 (human); NOD/SCID mice, U87 xenografts, U87 control tumour; 480 min post-injection): 2.92 ± 0.77 %ID/g
CN1CCC[C@]1(C)/C=C/S(=O)(=O)NC(=O)Nc1c2c(cc3c1CCC3)CCC2  AUC(0-t) (human, plasma; oral, 25 mg, single dose, healthy volunteers): 27000 ng·h/mL

A few entries again:
CCCCC/C=C/C(=O)CCc1ccc(O)c(OC)c1  IC50 (mouse mAb 1-D6; antibody binding, indirect competitive ELISA; added: coating antigen 6-OVA): 0.0503 µg/mL (≈ 0.182 µM)
